Results collected from several papers.
Each numbered part is a random draw from the data of one study; scales do not carry over between parts. Changes are numbered by the printed parent chain.

Set 1
Target: CCND1, cyclin fold, Cln2 fusion (human)
Method: yeast growth competition, sequencing
Sample: yeast
Setting: strong parent motif
Reference: not given
Reading: higher = stronger binding
Parent: viral docking peptide; YKVKRRLVFGADD; partner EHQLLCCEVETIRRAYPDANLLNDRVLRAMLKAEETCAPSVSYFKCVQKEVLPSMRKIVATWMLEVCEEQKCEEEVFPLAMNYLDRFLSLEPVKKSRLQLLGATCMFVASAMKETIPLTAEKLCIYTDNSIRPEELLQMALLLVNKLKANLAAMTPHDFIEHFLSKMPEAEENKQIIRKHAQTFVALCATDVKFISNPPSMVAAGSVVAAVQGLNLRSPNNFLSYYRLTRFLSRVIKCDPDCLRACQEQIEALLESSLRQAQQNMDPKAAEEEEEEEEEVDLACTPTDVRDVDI
Substitution	normalised enrichment score
A11W	1.29
R6L	0.684
R5M	0.344
D12S	1.12
F9Q	0.192
V3D	0.0989
D12F	0.843
D13A	0.551
F9S	-0.0283
V8E	2.83
G10A	1.84
R6V	1.13

Set 2
Target: Prothrombin, mature alpha-thrombin (F2, Homo sapiens, UniProt P00734)
Method: aptamer microarray, sandwich
Form: DNA with 2'F-ANA
Sample: in vitro
Concentration: 200 nM
Setting: whole 15-mer aptamer, many near background
Added: Cy3 exosite-II aptamer, 400 nM
Reading: higher = stronger binding
Strand: GGTTGGTGTGGTTGG
Modification	mean fluorescence intensity
2'F-ANA at 1 2 6 7 8 10 13 14 15	52 a.u.
2'F-ANA at 1 2 4 6 7 8 9 10 15	61.7 a.u.
2'F-ANA at 2 3 5 7 8 10 12 14	57.1 a.u.
2'F-ANA at 1 2 3 4 7 9 10 11 12 13 14	58 a.u.
2'F-ANA at 3 5 6 7 10 11 14	56.6 a.u.
2'F-ANA at 2 4 7 10 12	159 a.u.
2'F-ANA at 1 5 7 8 9 11 12	103 a.u.
2'F-ANA at 2 4 7 8 9 10 11 12 14	65.7 a.u.

Set 3
Target: RING finger protein unkempt homolog, zinc fingers 1-6, GST-SBP tag (UNK, Homo sapiens, UniProt Q9C0B0, residues 30-357)
Sequence of UniProt Q9C0B0 (30-357, looked up): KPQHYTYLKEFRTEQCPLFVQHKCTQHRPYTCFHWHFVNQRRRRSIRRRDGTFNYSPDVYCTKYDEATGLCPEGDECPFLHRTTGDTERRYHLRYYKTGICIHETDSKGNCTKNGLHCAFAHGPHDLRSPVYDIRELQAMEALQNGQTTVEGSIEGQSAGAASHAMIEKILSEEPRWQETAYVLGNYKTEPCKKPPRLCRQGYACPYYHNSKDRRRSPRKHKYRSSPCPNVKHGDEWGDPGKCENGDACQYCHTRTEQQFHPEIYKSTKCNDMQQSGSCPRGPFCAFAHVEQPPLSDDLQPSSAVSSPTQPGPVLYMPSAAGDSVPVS
Method: RNA Bind-n-Seq
Form: RNA
Sample: in vitro
Concentration: not given
Setting: RNA with constant flanks, human and mouse sites, ends assumed
Reference: input RNA pool
Reading: higher = stronger binding
Constant ends, left off below: GGGAGUUCUACAGUCCGACGAUC … CAACAGAGGAUUGAGCAUCA
Strand	bound/input enrichment [ratio]
GUUCAGCUUCACCAGAUGGCUGUGAUAGGGCAGCAAGCUGGGAGCAGCAGCAACCUCACCGAGCUACAGGUGGUGAACCUGGAUGCCACCCACAGCACCAAGAGUGAAUGAUCCGCCCGU	0.129
ACUAACAAAAGUGCCUCAUGAUAAAAGUACAUUUGAUUUUUAGGGUGCCAUAUUGUUAAAAUUAGAAAAUUGAAUAAAUGAAUGCAUUUUAUCAGUAACAAGUUUCCUUCCAUUUACCAG	3.45
GGAUCCUUCACAGUGAGGACUGACACAGGUGAACCAAUGGGUCGUGGAACAAAGGUUAUCUUGCAUCUGAAAGAAGACCAAACAGAGUAUUUGGAGGAAAGGAGAAUAAAGGAGAUCGUG	0.382
AGAAAAUUGUGCUACUGUGUGUGCGUGUGCGUGCGUGUGUGUAGUGCUAGGAGUCCACAGUAGGUCUCUGUCAAGCCGAUGUCGUGAUGAGGGCUUUUCUGAUACUGACCCAGAAGCCAC	0.105
CUUACAAAUAAGUACUUAAAACAGAGCUUAAUGGGUAAAGCAACAGCUGUGUAAUCACAAACUAGAUGCAGAGGAGGUCUUGCCAGCACUCCAAAAUCUCUGUGUGUCCCCUCUUGACAC	0.171
CGUUACUUGUGCCAGUCUAAUGCACUACCGAGUCAUGUAAAGAUCAAUGUGUCCCGACAGACAUUAUUUGAAGAUUCCUUCCAACAGAUUAUGGCAUUAAAACCAUAUGACUUGAGGAGG	0.122
CAUCAUCGGGUGGGCGAGACAGCCCCACCCAAUGCCUACACUGUCACUGACCUAGUGGAGUAUAGCAUCGUGAUCCAGCAGCUCUCAAAUGGCAAAUGGGUCCCCUUUGAUGGCGAUGAC	0.145
AUUAUGUCUUAUAAUCCUGCAUCACUUCUAUCCUAUCCAGUCAUAUCUAAUGUAGAAAAUUAGUUUCCAGUGAAAGUAAUAUGUAGUGCUUUUAUGAUAUUUGUGUGCAAUAUCCCCUCU	5.03

Single results of other studies
Molecule	target	read-out	form	concentration	endpoint	value
LTMNLVSDI	HLA class I histocompatibility antigen, A alpha chain, allele A*25:01 (Homo sapiens, UniProt P04439)	peptide-MHC binding	peptide	concentration not given	binding	inactive

A few entries again (set 3):
Strand	bound/input enrichment [ratio]
CAUCAUCGGGUGGGCGAGACAGCCCCACCCAAUGCCUACACUGUCACUGACCUAGUGGAGUAUAGCAUCGUGAUCCAGCAGCUCUCAAAUGGCAAAUGGGUCCCCUUUGAUGGCGAUGAC	0.145
GUUCAGCUUCACCAGAUGGCUGUGAUAGGGCAGCAAGCUGGGAGCAGCAGCAACCUCACCGAGCUACAGGUGGUGAACCUGGAUGCCACCCACAGCACCAAGAGUGAAUGAUCCGCCCGU	0.129
AGAAAAUUGUGCUACUGUGUGUGCGUGUGCGUGCGUGUGUGUAGUGCUAGGAGUCCACAGUAGGUCUCUGUCAAGCCGAUGUCGUGAUGAGGGCUUUUCUGAUACUGACCCAGAAGCCAC	0.105
AUUAUGUCUUAUAAUCCUGCAUCACUUCUAUCCUAUCCAGUCAUAUCUAAUGUAGAAAAUUAGUUUCCAGUGAAAGUAAUAUGUAGUGCUUUUAUGAUAUUUGUGUGCAAUAUCCCCUCU	5.03
